# Published values pooled from the literature.
# Compare with care: the assays were run in different laboratories.
# Cell line: HUVEC
SMILES,test,conditions,how to read,quantity,value
COc1ccc2cc3[n+](cc2c1OCc1cn(Cc2ccc(OC(F)(F)F)cc2)nn1)CCc1cc2c(cc1-3)OCO2,"cell growth or viability, MTT",,,IC50,10.7 µM
CC(C)(C)c1cc2c(O)c(c1)Cc1cc(C(C)(C)C)cc(c1OCC(=O)Nc1cccc3ncccc13)Cc1cc(C(C)(C)C)cc(c1O)Cc1cc(C(C)(C)C)cc(c1OCC(=O)Nc1cccc3ncccc13)COC2,"cell growth or viability, MTT","15 µM, 72 h",,inhibition,< 0%
COc1ccc2cc3[n+](cc2c1OCc1cn(Cc2c(F)cccc2F)nn1)CCc1cc2c(cc1-3)OCO2,"cell growth or viability, MTT",,,IC50,46.2 µM
CC[C@H](C)[C@H](NC(=O)CNC(=O)[C@H](CCCCNC(C)=O)NC(=O)[C@H](Cc1ccc(O)cc1)NC(=O)[C@H](C)NC(=O)[C@H](CC(C)C)NC(=O)[C@H](CCC(N)=O)NC(=O)[C@H](Cc1ccc(O)cc1)NC(=O)[C@H](CC(C)C)NC(=O)[C@H](CCC(=O)O)NC(=O)[C@H](CCSC)NC(=O)[C@H](Cc1c[nH]c2ccccc12)NC(=O)[C@@H](NC(=O)[C@H](CC(C)C)NC(=O)[C@H](CCCCNC(=O)CCc1cn(CCOCCOCCOCCOCCOCCOCCOCCOCCNC(=O)CCC(=O)NCc2ccc(CN3C(=O)[C@H]4CC(=O)N[C@@H](CCCNC(=N)N)C(=O)NCC(=O)N[C@@H](CC(=O)O)C(=O)NC[C@H]3C(=O)N4)cc2)nn1)NC(C)=O)[C@@H](C)O)C(N)=O,Matrigel tube formation,"concentration not given, 5 h, with: VEGF165 10 ng/mL",,capillary network formation,decreased
COc1ccc2cc3[n+](cc2c1OCc1cn(Cc2ccccc2C#N)nn1)CCc1cc2c(cc1-3)OCO2,"cell growth or viability, MTT",,,IC50,14.8 µM
CC(=O)N[C@@H](CCCCN)C(=O)N[C@@H](Cc1c[nH]c2ccccc12)C(=O)N[C@@H](Cc1ccccc1)C(=O)N[C@@H](CCC(=O)O)C(=O)N[C@H](C(=O)N[C@@H](Cc1c[nH]c2ccccc12)C(=O)N[C@@H](Cc1ccccc1)C(=O)N[C@H](C(=O)N[C@@H](CCC(=O)O)C(=O)N[C@@H](Cc1c[nH]c2ccccc12)C(=O)N1CCC[C@H]1C(=O)N[C@@H](CCCCN)C(=O)N[C@@H](CCCCN)C(=O)N[C@@H](CCCNC(=N)N)C(=O)N[C@@H](CCCCN)C(=O)NCCS)[C@@H](C)O)[C@@H](C)O,"cyclin B1 protein, western blot",antisense delivery,relative to: MPG over compound,IC50 ratio,70 fold
CC(C)(C)c1cc2c(O)c(c1)Cc1cc(C(C)(C)C)cc(c1OCC(=O)Nc1cncc3ccccc13)Cc1cc(C(C)(C)C)cc(c1O)Cc1cc(C(C)(C)C)cc(c1OCC(=O)Nc1cncc3ccccc13)COC2,"cell growth or viability, MTT","15 µM, 72 h",,inhibition,27%
CNC(=O)c1c(C)oc2cc(Oc3ncnc4cc(OC)c(OCCCCCCC(=O)NO)cc34)ccc12,tube formation,"2.5 µM, 72 h",relative to: control,tubule length,77%
COc1ccc2cc3[n+](cc2c1OCc1cn(Cc2ccc(Cl)cc2F)nn1)CCc1cc2c(cc1-3)OCO2,"cell growth or viability, MTT",,,IC50,54.4 µM
C/C=C(/C)C(=O)OC[C@H]1[C@@H](Cc2ccc(C(C)(C)C)cc2)CO[C@@H]1c1ccc(F)cc1,,30 µM,,proliferation,no effect
CC[C@H](NC(=O)[C@H](Cc1ccccc1)NC(=O)[C@H](CCSC)NC(=O)[C@H](Cc1ccccc1)NC(=O)[C@@H]1CCCN1C(=O)[C@H](CCSC)NC(=O)[C@@H](NC(=O)[C@H](CO)NC(=O)[C@H](Cc1ccccc1)NC(=O)[C@H](CCCNC(=N)N)NC(=O)[C@H](CCCNC(=N)N)NC(=O)[C@@H](N)CC(C)C)[C@@H](C)O)C(=O)N[C@@H](CC(N)=O)C(=O)N[C@H](C(=O)N[C@@H](CC(N)=O)C(=O)N[C@@H](CC(N)=O)C(=O)N[C@H](C(=O)N[C@@H](CC)C(=O)N[C@@H](CC(N)=O)C(=O)N[C@@H](Cc1ccccc1)C(N)=O)C(C)C)[C@@H](C)CC,"cell migration, inhibitor",50 µM,,inhibition,60%
COc1ccc2cc3[n+](cc2c1OCc1cn(Cc2c(Cl)cc(Cl)cc2Cl)nn1)CCc1cc2c(cc1-3)OCO2,"cell growth or viability, MTT",,,IC50,30.5 µM
CC(C)(C)c1cc2c(O)c(c1)Cc1cc(C(C)(C)C)cc(c1OCC(=O)Nc1cccc3cccnc13)Cc1cc(C(C)(C)C)cc(c1O)Cc1cc(C(C)(C)C)cc(c1OCC(=O)Nc1cccc3cccnc13)COC2,"cell growth or viability, MTT","15 µM, 72 h",,inhibition,23%
O=Cc1c(O)ccc2ccccc12,"RNA sequencing, item: TFPI2","75 µM, 24 h",relative to: DMSO,log2 fold change,-3.24
CC(C)(C)c1cc2c(O)c(c1)Cc1cc(C(C)(C)C)cc(c1OCC(=O)NCc1ccncc1)Cc1cc(C(C)(C)C)cc(c1O)Cc1cc(C(C)(C)C)cc(c1OCC(=O)NCc1ccncc1)COC2,"cell growth or viability, MTT","15 µM, 72 h",,inhibition,25%
CC[C@@H](C)[C@H]1NC(=O)[C@@H]([C@H](C)O)NC(=O)[C@@H](Cc2c[nH]cn2)NC(=O)CNC(=O)[C@@H](CCCNC(=N)N)NC(=O)CNC(=O)[C@@H](Cc2ccccc2)NC1=O,"inhibitor, immunofluorescence","100 nM, 1 h pretreatment, with: VEGF 200 ng/mL for 30 min",,VEGF-induced cytoskeletal changes,inhibited

# For quick reference, copied from above:
SMILES,test,conditions,how to read,quantity,value
CC(C)(C)c1cc2c(O)c(c1)Cc1cc(C(C)(C)C)cc(c1OCC(=O)Nc1cccc3ncccc13)Cc1cc(C(C)(C)C)cc(c1O)Cc1cc(C(C)(C)C)cc(c1OCC(=O)Nc1cccc3ncccc13)COC2,"cell growth or viability, MTT","15 µM, 72 h",,inhibition,< 0%
COc1ccc2cc3[n+](cc2c1OCc1cn(Cc2c(F)cccc2F)nn1)CCc1cc2c(cc1-3)OCO2,"cell growth or viability, MTT",,,IC50,46.2 µM
